Published values gathered from unrelated publications.
Each numbered part is a random draw from the data of one study; scales do not carry over between parts.

Series 1 — species: mouse; medium: microsomes or S9; concentration: 2 µM; time: 0.5 h
SMILES	remaining compound
COc1ccccc1CCN[C@H]1CS(=O)(=O)C[C@@H]1S(=O)(=O)c1ccc(Cl)cc1	1.04%
COc1ccc2c(c1)C(=O)CC(c1ccccc1)O2 (stereo not drawn)	27.6%
Cc1nc2ncnn2c(C)c1CCC(=O)OC1(C)CCC(C)(C)CC1	> 99.9%
Cc1ccc(-c2nccn3cc(C(=O)N(C)Cc4cn(C)nc4C)nc23)cc1	6.12%
CC(C)COc1cc(=O)n2c(c1C(=O)NCCCN1CCOCC1)CCCCC2	62.5%
COc1ccc(Cl)cc1NC(=O)c1cc2c(OC)ccc(OC)c2n1C	27.5%
COc1cccc([C@@H]2CN(C(=O)C3CC(=O)Nc4ccccc43)C[C@]23CCCCC(=O)N3)c1 (stereo partly drawn)	23.9%
CCC(C(=O)Nc1ccc(C(=O)O)cc1NC(=O)C(CC)c1ccccc1)c1ccccc1 (stereo not drawn)	77.9%
O=c1c2cc3c(=O)n(-c4ccccc4)ccc3nc2ccn1CCO	97.6%
Cc1cc(C)[nH]/c(=N\N=C\C2=C(O)CC(C)CC2=O)n1 (stereo not drawn)	35.2%
Cc1nn2c(N(C)C)cc(Cl)nc2c1Br	0.118%
CCC(C)OC(=O)c1c(NC(=O)C2CCN(S(C)(=O)=O)CC2)sc2c1CCCC2 (stereo not drawn)	17.8%
CCOC(=O)N1CCN(Cc2nc(N)nc(Nc3ccc(F)cc3)n2)CC1	> 100%
CC(C)n1nc(-c2ccc3ncccc3c2)c2cnc3cc(F)ccc3c21	25.9%
Brc1cccc(-c2cnc3n2CCCCC3)c1	0.218%
CCC[C@@H]1CN(c2ncnc3sccc23)C[C@H]1C(=O)O	39.2%

Series 2 — cell line: sample G normal colon organoid; technique: CellTiter-Glo; concentration: 1 µM; time: 4 days; reference: DMSO
SMILES	viability [%]
CN(C)C(=O)Cn1cc(-c2nc(C3(c4ccc(-c5cnc(N)nc5)cc4)CC3)no2)cn1	106
Cc1c(NC(=O)c2cc(C(N)=O)nc3cc(F)ccc23)c(C(F)(F)F)nn1Cc1ccc(C#N)cc1	21.5
C[C@H](c1ccc(F)cc1)N(Cc1cccc(C(=O)O)c1)C(=O)c1cnc2ccccc2c1	114
NS(=O)(=O)c1cc(NC(=O)C2(c3ccccc3Cl)CC2)ccc1Oc1cccc(Cl)c1	122
CCCCN(Cc1ccccc1)C(=O)c1ccc(S(=O)(=O)Nc2ccccc2)cc1	94.8
C[C@H](NC(=O)c1cnc2n1[C@](C)(Cc1ccc(C#N)cc1)C(=O)N2c1cc(Cl)c(F)c(Cl)c1)C(=O)NC1(c2ccccn2)CC1	122
O=C(Nc1cccnn1)N1CCC(=Cc2cccc(Oc3ccc(C(F)(F)F)cn3)c2)CC1	96.4
CN(c1ccnc(CNc2nc(Nc3ccc4c(c3)CC(=O)N4)ncc2C(F)(F)F)n1)S(C)(=O)=O	108
CN(C)c1ncnc(-c2ccc3nc(Nc4cc(CN5CCN(C(=O)CC(F)(F)F)CC5)ccn4)[nH]c3c2)c1Cl	93.5
NS(=O)(=O)c1cc(NC(=O)Cc2ccccc2)ccc1Oc1cccc(Cl)c1	113
C[C@@]1(Cc2ccc(C#N)cc2)C(=O)N(c2cc(Cl)cc(Cl)c2)c2ncc(C(=O)NC3(c4nc(C5CCC5)no4)CC3)n21	128
C[C@H](c1ccnc(Nc2nc3ccc(-c4cc(N(C)C)ncn4)cc3[nH]2)c1)N1CCN(C(=O)CC(F)(F)F)CC1	91.9
C[C@H](c1ccc(F)cc1)N(Cc1ccc(Cl)c(C(=O)O)c1)C(=O)c1cnc2ccccc2c1	112

Series 3 — effect on: enzyme activity; mode: inhibitor; concentration: 0.5 µM; reference: control
Target: Casein kinase I isoform alpha (CSNK1A1, Homo sapiens, UniProt P48729)
Chain of UniProt P48729 (whole entry, looked up): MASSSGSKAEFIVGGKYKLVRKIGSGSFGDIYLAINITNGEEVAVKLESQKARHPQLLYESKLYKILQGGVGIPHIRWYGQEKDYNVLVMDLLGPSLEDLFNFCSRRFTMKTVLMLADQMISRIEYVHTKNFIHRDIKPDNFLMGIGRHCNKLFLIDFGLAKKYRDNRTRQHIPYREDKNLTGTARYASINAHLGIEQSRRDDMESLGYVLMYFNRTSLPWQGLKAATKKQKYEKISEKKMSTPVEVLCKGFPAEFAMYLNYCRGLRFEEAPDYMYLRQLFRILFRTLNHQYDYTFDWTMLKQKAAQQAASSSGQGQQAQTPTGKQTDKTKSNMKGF
Compound	remaining activity [%]
Cn1nc2c3c(cccc31)C(=O)c1ccccc1-2	47.8
N#C/C(=C\c1ccc(O)c(O)c1)C(=O)NCc1ccccc1	110
CN(C)C[C@H]1CCn2c(c(C3=C(c4cn(C)c5ccccc45)C(=O)NC3=O)c3ccccc32)C1	98.5
O=c1cc(-c2cccc3c2Sc2ccccc2S3)oc(N2CCOCC2)c1	94.9
Cc1cc2ncc(-c3ccccc3)nc2cc1C	95.4
O=C(Nc1cccc(Nc2nccc(Nc3cccc(C(F)(F)F)c3)n2)c1)C1CC1	95.8
Ic1cccc(CSc2nnc(-c3ccncc3)o2)c1	97
C[C@@H]1CCN(C(=O)CC#N)C[C@@H]1N(C)c1ncnc2[nH]ccc12	99.7
c1ccc(-c2[nH]ncc2-c2ccnc3ccccc23)nc1	74.6
Cc1nc2cc3nc(-c4cccs4)cnc3cc2n1C	96.7
Nc1cccc(-c2cc3c(Oc4cccc(O)c4)ncnc3[nH]2)c1	61.8
COc1cc2ncnc(Nc3cccc(Cl)c3)c2cc1OC	92.5
CCN(CC)C(=O)c1ccc(Nc2nc(OCC3CCCCC3)c3[nH]cnc3n2)cc1	104
COc1cc2ncnc(Nc3ccc(O)c(Br)c3)c2cc1OC	89.6
N#Cc1c(NC(=O)c2cccc3ccccc23)sc2c1CCCC2	91.1
Cc1cn(-c2cc(NC(=O)c3ccc(C)c(Nc4nccc(-c5cccnc5)n4)c3)cc(C(F)(F)F)c2)cn1	101
CCN(CC)CCNC(=O)c1c(C)[nH]c(/C=C2\C(=O)Nc3ccc(Cl)cc32)c1C	75.7
c1ccc(-c2cnc(Nc3ccc(OCCN4CCCC4)cc3)s2)cc1	86.7
O=C1C(Cl)=C(N2C(=O)CCC2=O)C(=O)c2ccccc21	99.2
O=C(NC(NC(=S)Nc1ccc(F)c([N+](=O)[O-])c1)C(Cl)(Cl)Cl)C(c1ccccc1)c1ccccc1 (stereo not drawn)	94.1
O=C1c2ccccc2-c2n[nH]c3cccc1c23	47.9

Other studies, line by line
SMILES	system	setting	endpoint	value
CC(C)n1cnc(-c2ccc(F)cc2)c1-c1ncc(C(=O)Nc2ccc(N3CCN(C)CC3)cc2)[nH]1	IPF patients	30 mg once daily, adverse event	carbon dioxide decreased incidence	0%

For quick reference, copied from above (series 3):
Compound	remaining activity [%]
Ic1cccc(CSc2nnc(-c3ccncc3)o2)c1	97
C[C@@H]1CCN(C(=O)CC#N)C[C@@H]1N(C)c1ncnc2[nH]ccc12	99.7
c1ccc(-c2[nH]ncc2-c2ccnc3ccccc23)nc1	74.6
Cc1nc2cc3nc(-c4cccs4)cnc3cc2n1C	96.7
